Assay results of several laboratories.
Numbered parts are unrelated; each lists some results of a single study.

Series 1
Target: Sal-like protein 4, full length isoform B (SALL4, Homo sapiens, UniProt Q9UJQ4-2, residues 1-616)
Technique: universal PBM
Molecule type: double-stranded DNA, one strand shown
Sample: in vitro
Tested at: not given
Setting: 8-mer, flanks averaged, mean of replicates
Direction: higher = stronger binding
Measurement: E-score
GTCAGCAA: 0.025
AATTAGGA: 0.212
ATGCGCTA: 0.0944
GTTTATAA: 0.352
AACTGGGT: -0.179
AGAAATAG: 0.24
AGGGGCTG: -0.276
GCCTTAAA: -0.0893

Series 2
Target: Cyclic AMP-responsive element-binding protein 1, full length (CREB1, Homo sapiens, UniProt P16220, residues 1-327)
UniProt P16220, sequence (whole entry, looked up): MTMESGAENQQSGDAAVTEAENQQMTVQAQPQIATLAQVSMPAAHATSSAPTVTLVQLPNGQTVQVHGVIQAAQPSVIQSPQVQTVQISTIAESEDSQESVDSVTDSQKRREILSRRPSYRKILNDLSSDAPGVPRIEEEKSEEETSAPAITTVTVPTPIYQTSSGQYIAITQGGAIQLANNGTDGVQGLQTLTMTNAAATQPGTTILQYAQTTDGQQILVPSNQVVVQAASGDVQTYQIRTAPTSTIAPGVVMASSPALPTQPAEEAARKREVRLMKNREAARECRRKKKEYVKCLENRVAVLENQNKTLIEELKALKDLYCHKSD
Technique: protein-binding microarray
Molecule type: hairpin DNA
Sample: in vitro
Tested at: not given
Setting: whole hairpin DNA, median over replicate spots
Reference: not given
Direction: higher = stronger binding
Measurement: median fluorescence
All sequences stand within: GAGGCCG … CGGCCTCACACTC
GATGACGTCGGCCTCCTGGCCGACGTCATC (5mC at 28): 14900 a.u.
GCTGACGTAAGCCTCCTGGCTTACGTCAGC: 9310 a.u.
ACGCCGTCGTGCCTCCTGGCACGACGGCGT (5mC at 9 11 15 29 35): 2970 a.u.
ACGACCTCGTGCCTCCTGGCACGAGGTCGT (5mC at 9 13 15 29 35): 2480 a.u.
GATGACGTCTGCCTCCTGGCAGACGTCATC: 9090 a.u.
GATGCGGTCAGCCTCCTGGCTGACCGCATC (5mC at 32): 2800 a.u.
GATGACGTCAGCCTCCTGGCTGACGTCATC (5mC at 13 31): 3330 a.u.
GATGACGTCCGCCTCCTGGCGGACGTCATC (5mC at 17): 7570 a.u.

Series 3
Target: TAR DNA-binding protein 43, full length, His tag (TARDBP, Homo sapiens, UniProt Q13148, residues 1-414)
Technique: RNA Bind-n-Seq
Molecule type: RNA
Sample: in vitro
Tested at: 20 nM
Setting: 6-mer, flanks averaged, single round
Added: 150 mM KCl
Reference: input library
Direction: higher = stronger binding
Measurement: 6-mer enrichment (R)
GCAGAU: 0.862
GCUACC: 0.675
CCCUGG: 0.867
AAAGGU: 0.789
AUACAG: 0.68
ACCGGC: 0.874
AUGAGA: 0.935
ACUGUU: 0.627

Further values, each from its own experiment
RRRKGWIPL  binding (HLA class I histocompatibility antigen, C alpha chain, allele C*04:01 (Homo sapiens, UniProt P10321); peptide-MHC binding; peptide; concentration not given): inactive

Some of these lines once more (series 1):
GTCAGCAA: 0.025
GTTTATAA: 0.352
AACTGGGT: -0.179
